Measured values pooled from the literature.
Protocols differ between the studies behind these lines. ± gives the spread as reported.

Structure (SMILES) | test | system | conditions | scale | quantity | result
COc1ccc2c(c1)/C(=N\Nc1nnc3n1N=C(c1ccc(C)cc1)CS3)C(=O)N2 | angiogenesis | hen egg chorioallantoic membrane | 40 µM | reference: DMSO vehicle | number of blood vessels | decreased
CC[C@H](C)[C@H](NC(=O)[C@@H](NC(=O)[C@H](CC(=O)O)NC(C)=O)[C@@H](C)O)C(=O)N[C@@H](CCCNC(=N)N)C(=O)N[C@@H](CC(C)C)C(=O)N[C@@H](CC(C)C)C(=O)N[C@@H](Cc1ccccc1)C(=O)N[C@@H](CCC(N)=O)C(=O)N[C@@H](CC(C)C)C(=O)N[C@@H](CCSC)C(=O)N[C@@H](CCCNC(=N)N)C(=O)N1CCC[C@H]1C(=O)N1CCC[C@H]1C(=O)N[C@@H](CC(N)=O)C(=O)N[C@@H](CCSC)C(=O)N[C@H](C(=O)N1CCC[C@H]1C(=O)N[C@@H](C)C(=O)N[C@H](C(=O)N[C@@H](CC(N)=O)C(=O)N[C@@H](C)C(N)=O)C(C)C)[C@@H](C)O | measured: HA-51 tetramer | antigen-experienced tetramer+ CD4 T cells, healthy adults, HLA-DRB1*0101 | dose not given | – | α4β7+ CCR9+ cells | 23.5%
CC(=O)c1cc2ccccc2oc1=Nc1nccs1 | – | New Zealand White rabbit, normotensive | dose not given | reference: control | mean arterial blood pressure | increased
CSCC[C@H](NC(=O)[C@H](CCCNC(=N)N)NC(=O)[C@H](CCCNC(=N)N)NC(=O)[C@H](CCCCN)NC(=O)[C@H](C)NC(=O)[C@H](CCCNC(=N)N)NC(=O)CNC(=O)[C@@H](NC(=O)CN1CCN(CC(=O)O)CCN(CC(=O)O)CCN(CC(=O)O)CC1)[C@@H](C)O)C(=O)N[C@@H](CCC(N)=O)C(=O)N[C@@H](Cc1ccc(O)cc1)C(=O)N[C@@H](CC(N)=O)C(=O)N[C@@H](CCCNC(=N)N)C(=O)N[C@@H](CCCNC(=N)N)C(=O)O [gallium-68 labelled] | – | rat, S. aureus infection | iv, 20 min | – | target to background ratio | 1.6
CC[C@H](C)[C@H](NC(=O)[C@H](CCCNC(=N)N)NC(=O)[C@H](CCC(N)=O)NC(=O)[C@H](CC(=O)O)NC(=O)[C@H](CC(C)C)NC(=O)[C@H](CC(C)C)NC(=O)[C@H](CC(N)=O)NC(=O)[C@H](Cc1ccccc1)NC(=O)[C@H](CC(=O)O)NC(=O)[C@@H](NC(=O)[C@@H](NC(=O)[C@H](CC(N)=O)NC(=O)CNC(=O)[C@H](CO)NC(C)=O)C(C)C)[C@@H](C)CC)C(=O)N[C@H](C(=O)N[C@@H](Cc1c[nH]c2ccccc12)C(=O)N[C@@H](CCC(N)=O)C(=O)N[C@@H](CC(N)=O)C(=O)N[C@@H](Cc1c[nH]c2ccccc12)C(=O)N[C@@H](Cc1ccc(O)cc1)C(=O)N[C@@H](C)C(N)=O)[C@@H](C)CC | measured: HA-02 tetramer | antigen-experienced tetramer+ CD4 T cells, healthy adults, HLA-DRB1*0101 | dose not given | – | α4β7+ CCR9− cells | 85.7%
CC(C)C[C@H](NC=O)C(=O)N[C@@H](C)C(=O)N[C@@H](C)C(=O)N[C@@H](CC(=O)O)C(=O)N[C@@H](CC(C)C)C(=O)N[C@@H](CC(C)C)C(=O)N[C@@H](C)C(=O)N[C@@H](C)C(=O)N[C@@H](CC(C)C)C(=O)NCC(=O)N[C@@H](CC(=O)O)C(=O)N[C@@H](CC(C)C)C(=O)N[C@@H](C)C(=O)N[C@@H](CCCCN)C(=O)N[C@@H](Cc1c[nH]c2ccccc12)C(=O)N[C@@H](CC(C)C)C(=O)N[C@@H](CC(C)C)C(=O)N[C@@H](CC(=O)O)C(=O)N[C@@H](C)C(=O)N[C@@H](CC(C)C)C(=O)N[C@@H](C)C(=O)N[C@@H](CCCCN)C(=O)N[C@@H](C)C(=O)N[C@@H](C)C(=O)N[C@@H](CCCCN)C(=O)N[C@@H](CCCCN)C(=O)O (racemic) | carboxyfluorescein release, stopped-flow fluorescence | POPC vesicles 50 µM | up to 1 µM, pH 7.5, peptide/lipid 1:50 | – | time constant | 14.8 s
CC[C@H](C)[C@H](NC(=O)[C@H](CCCNC(=N)N)NC(=O)[C@H](Cc1ccc(O)cc1)NC(=O)[C@H](Cc1ccc(O)cc1)NC(=O)[C@@H](N)CCCNC(=N)N)C(=O)N[C@@H](CCCCN)C(N)=O | mechanical allodynia, von Frey | CCI neuropathic mice | intrathecal, 30 min | – | ED50 | 0.004 nmol
O=c1c(O)c(-c2cc(O)ccc2O)oc2cc(O)cc(O)c12 | DPPH radical scavenging | – | 62.5 µg/mL | – | inhibition | 49.7 ± 3.01%
N#Cc1cnc2cc(OCC3CCNCC3)c(F)cc2c1Nc1cc(F)c(OCc2cccc(Cl)n2)cc1Cl | – | C57BL/6J mice, diet-induced MASH, partial hepatectomy | dose not given, 72 h after hepatectomy | – | survival | 56.2%

For quick reference, copied from above:
Structure (SMILES) | test | system | conditions | scale | quantity | result
CC(=O)c1cc2ccccc2oc1=Nc1nccs1 | – | New Zealand White rabbit, normotensive | dose not given | reference: control | mean arterial blood pressure | increased
